# Assay results collected from several papers.
# Each numbered part is a random draw from the data of one study; scales do not carry over between parts.

# Study 1
# Target: Histone acetyltransferase KAT6A, winged helix 1, GST fusion (KAT6A, Homo sapiens, UniProt Q92794, residues 1-85)
# Technique: protein binding microarray
# Form: double-stranded DNA, one strand shown
# Matrix: in vitro
# Tested at: not given
# Setting: 8-mer, flanks averaged, mean of 2 arrays, mostly near background
# Relative to: not given
# Reading: higher = stronger binding
# Target sequence (chain): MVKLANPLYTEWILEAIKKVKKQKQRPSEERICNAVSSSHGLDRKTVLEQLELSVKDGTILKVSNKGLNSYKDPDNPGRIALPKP
Oligonucleotide,E-score
AAGGTGAA,-0.0541
CTCGTAGA,-0.204
CCGCAGGA,0.033
AACCGCAG,0.0423
CGTGCATC,-0.0704

# Study 2
# Target: Ras GTPase-activating protein-binding protein 1, RRM domain (G3BP1, Homo sapiens, UniProt Q13283)
# Sequence of UniProt Q13283 (whole entry, looked up): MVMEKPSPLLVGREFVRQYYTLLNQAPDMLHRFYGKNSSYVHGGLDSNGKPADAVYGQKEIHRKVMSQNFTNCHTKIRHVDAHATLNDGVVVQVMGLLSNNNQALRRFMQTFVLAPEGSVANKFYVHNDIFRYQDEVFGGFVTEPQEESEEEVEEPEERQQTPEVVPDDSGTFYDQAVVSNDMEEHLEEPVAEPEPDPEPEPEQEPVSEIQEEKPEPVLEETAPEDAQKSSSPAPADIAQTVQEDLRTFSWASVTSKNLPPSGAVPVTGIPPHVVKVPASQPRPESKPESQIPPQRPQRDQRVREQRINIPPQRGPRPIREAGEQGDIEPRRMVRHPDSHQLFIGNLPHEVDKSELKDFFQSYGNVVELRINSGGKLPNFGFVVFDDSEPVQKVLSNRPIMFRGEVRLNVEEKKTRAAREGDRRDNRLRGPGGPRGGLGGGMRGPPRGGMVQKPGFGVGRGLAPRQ
# Technique: RNA Bind-n-Seq
# Form: RNA
# Matrix: in vitro
# Tested at: 1 µM
# Setting: whole 134-nt RNA, ends assumed
# Together with: 150 mM KCl
# Relative to: input library
# Reading: higher = stronger binding
# Constant ends, left off below: GGGAGUUCUACAGUCCGACGAUC … UGGAAUUCUCGGGUGUCAAGG
Oligonucleotide,log2 enrichment
AAGUCCUGUGCUACACAUCGUAUGUACCGAAUCGGGAAAGGGUGGGAAAAAAAGGGAAAGUAUUAUGUUACGCCGUUCGGAUCUGCACUU,0.406
UCAAGUCCUGUGCUACACAUCGUAUGUACCGAAUCGGGGCCGGGCCGGGCCGGGAAAGUAUUAUGUUACGCCGUUCGGAUCUGCACUUCC,-0.784
AAGUCCUGUGCUACACAUCGUAUGUACCGAAUCGGGGAGGGGUUUUUGGGGAGGGGAAAGUAUUAUGUUACGCCGUUCGGAUCUGCACUU,0.978
UCCUGUGCUACACAUCGUAUGUACCGAAUCGGGGCCCCCGGGGCCCCCGGGCCCCCGGGAAAGUAUUAUGUUACGCCGUUCGGAUCUGCA,-0.537
UCCUGUGCUACACAUCGUAUGUACCGAAUCGGGUUUUUUUGGGAAAAAAAGGGUUUGGGAAAGUAUUAUGUUACGCCGUUCGGAUCUGCA,-0.316
ACCAUGCAGGUGGGCAUCUUUGGGAAGUGAAACAAGGGGGGGAUAGGGAGGGGGGUAACACUUUGGGAACAGGUGGUCCCAGGUCGUUUC,-0.56

# Study 3
# Target: Sal-like protein 4, full length isoform A (SALL4, Homo sapiens, UniProt Q9UJQ4, residues 1-1053)
# Sequence of UniProt Q9UJQ4 (whole entry, looked up): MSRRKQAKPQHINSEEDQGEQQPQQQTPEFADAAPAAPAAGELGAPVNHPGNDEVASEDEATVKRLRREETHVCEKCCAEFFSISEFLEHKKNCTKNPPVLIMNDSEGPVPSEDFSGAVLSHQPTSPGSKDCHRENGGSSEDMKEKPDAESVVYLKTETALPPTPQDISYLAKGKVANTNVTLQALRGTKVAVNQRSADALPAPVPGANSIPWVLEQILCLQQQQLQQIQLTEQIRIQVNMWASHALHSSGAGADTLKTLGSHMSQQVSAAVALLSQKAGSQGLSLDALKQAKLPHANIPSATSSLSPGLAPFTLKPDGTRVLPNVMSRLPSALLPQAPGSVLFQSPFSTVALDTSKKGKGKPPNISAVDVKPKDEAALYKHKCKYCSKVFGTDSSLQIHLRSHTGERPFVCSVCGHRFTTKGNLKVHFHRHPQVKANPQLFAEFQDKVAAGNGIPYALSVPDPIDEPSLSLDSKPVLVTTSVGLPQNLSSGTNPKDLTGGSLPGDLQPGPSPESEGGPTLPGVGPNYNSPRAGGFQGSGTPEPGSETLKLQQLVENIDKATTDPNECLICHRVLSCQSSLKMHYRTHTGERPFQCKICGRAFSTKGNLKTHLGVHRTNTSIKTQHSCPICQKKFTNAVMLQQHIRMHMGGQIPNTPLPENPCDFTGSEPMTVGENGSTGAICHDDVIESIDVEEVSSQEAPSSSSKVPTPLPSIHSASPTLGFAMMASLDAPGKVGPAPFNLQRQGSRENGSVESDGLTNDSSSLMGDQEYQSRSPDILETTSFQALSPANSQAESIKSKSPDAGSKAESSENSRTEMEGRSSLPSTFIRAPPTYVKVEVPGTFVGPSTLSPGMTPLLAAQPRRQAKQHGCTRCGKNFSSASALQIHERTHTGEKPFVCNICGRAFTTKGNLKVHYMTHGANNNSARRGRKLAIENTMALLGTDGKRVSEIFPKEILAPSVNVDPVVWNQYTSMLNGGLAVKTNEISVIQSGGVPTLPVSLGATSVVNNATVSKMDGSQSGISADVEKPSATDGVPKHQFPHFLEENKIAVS
# Technique: universal PBM
# Form: double-stranded DNA, one strand shown
# Matrix: in vitro
# Tested at: 600 nM
# Setting: 8-mer, flanks averaged, mean of replicates
# Reading: higher = stronger binding
Oligonucleotide,E-score
CAGGGAAG,-0.28
CAGTCTTC,-0.178
AGAAGATA,0.277
AGTCGTAT,0.154
GCTGACGA,-0.07
TGCGACCA,-0.0625

# Further values, each from its own experiment
Substance,target,test,test system,setting,how to read,measurement,result
"PhoQ, residues 284 288 289 292 302 303 ALAMYF","PhoP, residues 12 14 15 18 19 SYFRT (Escherichia coli, UniProt P23836)","Sort-seq, measured: YFP reporter",E. coli,"PhoQ-PhoP variant library, together with: 10 µM Mg2+","relative to: high Mg2+ state, higher = stronger signaling",fold induction,8.08

# Repeated from above (study 1):
Oligonucleotide,E-score
CTCGTAGA,-0.204
AACCGCAG,0.0423
